# Experimental data collected from several papers.
# Parts stem from different laboratories: compare values within a part only.
# Sequence of UniProt P25098 (whole entry, looked up): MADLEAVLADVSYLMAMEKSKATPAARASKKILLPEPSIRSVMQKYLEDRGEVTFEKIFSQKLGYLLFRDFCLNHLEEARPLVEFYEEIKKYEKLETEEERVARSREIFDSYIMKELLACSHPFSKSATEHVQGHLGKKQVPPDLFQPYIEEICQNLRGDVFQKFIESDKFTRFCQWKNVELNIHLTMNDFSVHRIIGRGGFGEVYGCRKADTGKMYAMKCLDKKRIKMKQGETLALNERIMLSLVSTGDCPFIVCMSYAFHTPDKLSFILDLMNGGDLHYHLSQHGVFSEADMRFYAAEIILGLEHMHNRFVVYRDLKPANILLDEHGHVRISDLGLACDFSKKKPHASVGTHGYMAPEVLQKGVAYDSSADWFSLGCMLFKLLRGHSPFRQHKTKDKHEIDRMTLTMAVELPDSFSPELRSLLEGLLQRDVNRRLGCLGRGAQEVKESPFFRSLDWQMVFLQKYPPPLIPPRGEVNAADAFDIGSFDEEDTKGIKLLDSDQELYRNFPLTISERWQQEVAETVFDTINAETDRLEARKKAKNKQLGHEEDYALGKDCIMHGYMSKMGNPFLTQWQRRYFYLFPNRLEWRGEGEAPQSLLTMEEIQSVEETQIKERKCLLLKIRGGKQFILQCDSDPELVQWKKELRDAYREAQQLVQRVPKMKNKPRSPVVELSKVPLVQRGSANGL
# Sequence of UniProt Q6DT37 (whole entry, looked up): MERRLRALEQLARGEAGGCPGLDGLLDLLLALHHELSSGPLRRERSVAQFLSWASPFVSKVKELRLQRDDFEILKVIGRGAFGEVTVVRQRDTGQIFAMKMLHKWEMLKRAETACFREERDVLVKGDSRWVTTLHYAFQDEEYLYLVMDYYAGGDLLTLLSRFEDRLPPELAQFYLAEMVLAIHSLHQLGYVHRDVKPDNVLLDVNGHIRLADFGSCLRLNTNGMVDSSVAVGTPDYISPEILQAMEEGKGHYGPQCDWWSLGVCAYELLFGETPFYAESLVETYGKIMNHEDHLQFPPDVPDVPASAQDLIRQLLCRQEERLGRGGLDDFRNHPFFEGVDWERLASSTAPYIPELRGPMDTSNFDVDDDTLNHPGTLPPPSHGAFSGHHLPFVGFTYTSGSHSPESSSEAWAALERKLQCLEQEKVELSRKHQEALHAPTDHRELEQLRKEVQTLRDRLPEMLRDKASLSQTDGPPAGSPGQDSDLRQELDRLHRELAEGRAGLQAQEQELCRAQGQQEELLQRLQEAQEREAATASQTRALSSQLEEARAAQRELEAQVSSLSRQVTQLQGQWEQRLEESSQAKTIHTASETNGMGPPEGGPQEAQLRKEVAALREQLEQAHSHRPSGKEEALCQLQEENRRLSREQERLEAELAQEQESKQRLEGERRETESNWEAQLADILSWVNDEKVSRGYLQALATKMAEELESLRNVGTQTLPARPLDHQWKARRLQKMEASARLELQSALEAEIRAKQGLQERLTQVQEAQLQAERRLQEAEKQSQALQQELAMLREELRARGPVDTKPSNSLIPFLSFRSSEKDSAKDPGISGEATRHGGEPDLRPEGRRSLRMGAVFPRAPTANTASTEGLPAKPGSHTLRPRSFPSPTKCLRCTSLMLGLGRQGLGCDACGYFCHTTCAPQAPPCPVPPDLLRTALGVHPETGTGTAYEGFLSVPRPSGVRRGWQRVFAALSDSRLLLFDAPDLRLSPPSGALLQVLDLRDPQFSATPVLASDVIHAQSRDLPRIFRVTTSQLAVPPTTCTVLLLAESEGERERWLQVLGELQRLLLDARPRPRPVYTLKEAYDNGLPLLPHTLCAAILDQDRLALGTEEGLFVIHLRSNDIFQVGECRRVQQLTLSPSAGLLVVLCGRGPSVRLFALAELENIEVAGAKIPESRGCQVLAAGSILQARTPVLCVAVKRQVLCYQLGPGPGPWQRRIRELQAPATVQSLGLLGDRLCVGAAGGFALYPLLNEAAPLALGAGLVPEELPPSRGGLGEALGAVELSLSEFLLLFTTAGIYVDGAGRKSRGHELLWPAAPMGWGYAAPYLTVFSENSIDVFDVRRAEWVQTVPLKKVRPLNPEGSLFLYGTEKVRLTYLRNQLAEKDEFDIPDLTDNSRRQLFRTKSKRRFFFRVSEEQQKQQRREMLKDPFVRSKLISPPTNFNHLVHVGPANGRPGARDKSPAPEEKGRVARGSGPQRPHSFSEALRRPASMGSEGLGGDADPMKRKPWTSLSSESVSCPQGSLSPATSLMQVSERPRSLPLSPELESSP
# Sequence of UniProt P53667 (whole entry, looked up): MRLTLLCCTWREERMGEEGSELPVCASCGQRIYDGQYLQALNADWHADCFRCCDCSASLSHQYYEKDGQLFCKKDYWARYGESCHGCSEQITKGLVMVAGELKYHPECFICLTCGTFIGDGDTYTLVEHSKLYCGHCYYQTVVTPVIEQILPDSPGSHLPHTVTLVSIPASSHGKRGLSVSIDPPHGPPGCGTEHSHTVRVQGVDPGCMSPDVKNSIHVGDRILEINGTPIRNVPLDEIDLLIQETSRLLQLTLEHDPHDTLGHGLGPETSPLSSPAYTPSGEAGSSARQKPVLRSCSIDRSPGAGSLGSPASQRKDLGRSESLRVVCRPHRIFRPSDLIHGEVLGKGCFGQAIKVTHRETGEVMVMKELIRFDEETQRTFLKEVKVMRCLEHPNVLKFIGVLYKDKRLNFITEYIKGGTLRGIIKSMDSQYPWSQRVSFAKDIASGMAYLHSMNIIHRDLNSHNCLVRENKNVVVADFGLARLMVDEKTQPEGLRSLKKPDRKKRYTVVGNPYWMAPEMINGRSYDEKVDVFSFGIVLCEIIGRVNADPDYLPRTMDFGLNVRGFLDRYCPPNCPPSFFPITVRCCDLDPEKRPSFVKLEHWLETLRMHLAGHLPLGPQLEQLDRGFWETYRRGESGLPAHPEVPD
# Sequence of UniProt Q9BX84 (whole entry, looked up): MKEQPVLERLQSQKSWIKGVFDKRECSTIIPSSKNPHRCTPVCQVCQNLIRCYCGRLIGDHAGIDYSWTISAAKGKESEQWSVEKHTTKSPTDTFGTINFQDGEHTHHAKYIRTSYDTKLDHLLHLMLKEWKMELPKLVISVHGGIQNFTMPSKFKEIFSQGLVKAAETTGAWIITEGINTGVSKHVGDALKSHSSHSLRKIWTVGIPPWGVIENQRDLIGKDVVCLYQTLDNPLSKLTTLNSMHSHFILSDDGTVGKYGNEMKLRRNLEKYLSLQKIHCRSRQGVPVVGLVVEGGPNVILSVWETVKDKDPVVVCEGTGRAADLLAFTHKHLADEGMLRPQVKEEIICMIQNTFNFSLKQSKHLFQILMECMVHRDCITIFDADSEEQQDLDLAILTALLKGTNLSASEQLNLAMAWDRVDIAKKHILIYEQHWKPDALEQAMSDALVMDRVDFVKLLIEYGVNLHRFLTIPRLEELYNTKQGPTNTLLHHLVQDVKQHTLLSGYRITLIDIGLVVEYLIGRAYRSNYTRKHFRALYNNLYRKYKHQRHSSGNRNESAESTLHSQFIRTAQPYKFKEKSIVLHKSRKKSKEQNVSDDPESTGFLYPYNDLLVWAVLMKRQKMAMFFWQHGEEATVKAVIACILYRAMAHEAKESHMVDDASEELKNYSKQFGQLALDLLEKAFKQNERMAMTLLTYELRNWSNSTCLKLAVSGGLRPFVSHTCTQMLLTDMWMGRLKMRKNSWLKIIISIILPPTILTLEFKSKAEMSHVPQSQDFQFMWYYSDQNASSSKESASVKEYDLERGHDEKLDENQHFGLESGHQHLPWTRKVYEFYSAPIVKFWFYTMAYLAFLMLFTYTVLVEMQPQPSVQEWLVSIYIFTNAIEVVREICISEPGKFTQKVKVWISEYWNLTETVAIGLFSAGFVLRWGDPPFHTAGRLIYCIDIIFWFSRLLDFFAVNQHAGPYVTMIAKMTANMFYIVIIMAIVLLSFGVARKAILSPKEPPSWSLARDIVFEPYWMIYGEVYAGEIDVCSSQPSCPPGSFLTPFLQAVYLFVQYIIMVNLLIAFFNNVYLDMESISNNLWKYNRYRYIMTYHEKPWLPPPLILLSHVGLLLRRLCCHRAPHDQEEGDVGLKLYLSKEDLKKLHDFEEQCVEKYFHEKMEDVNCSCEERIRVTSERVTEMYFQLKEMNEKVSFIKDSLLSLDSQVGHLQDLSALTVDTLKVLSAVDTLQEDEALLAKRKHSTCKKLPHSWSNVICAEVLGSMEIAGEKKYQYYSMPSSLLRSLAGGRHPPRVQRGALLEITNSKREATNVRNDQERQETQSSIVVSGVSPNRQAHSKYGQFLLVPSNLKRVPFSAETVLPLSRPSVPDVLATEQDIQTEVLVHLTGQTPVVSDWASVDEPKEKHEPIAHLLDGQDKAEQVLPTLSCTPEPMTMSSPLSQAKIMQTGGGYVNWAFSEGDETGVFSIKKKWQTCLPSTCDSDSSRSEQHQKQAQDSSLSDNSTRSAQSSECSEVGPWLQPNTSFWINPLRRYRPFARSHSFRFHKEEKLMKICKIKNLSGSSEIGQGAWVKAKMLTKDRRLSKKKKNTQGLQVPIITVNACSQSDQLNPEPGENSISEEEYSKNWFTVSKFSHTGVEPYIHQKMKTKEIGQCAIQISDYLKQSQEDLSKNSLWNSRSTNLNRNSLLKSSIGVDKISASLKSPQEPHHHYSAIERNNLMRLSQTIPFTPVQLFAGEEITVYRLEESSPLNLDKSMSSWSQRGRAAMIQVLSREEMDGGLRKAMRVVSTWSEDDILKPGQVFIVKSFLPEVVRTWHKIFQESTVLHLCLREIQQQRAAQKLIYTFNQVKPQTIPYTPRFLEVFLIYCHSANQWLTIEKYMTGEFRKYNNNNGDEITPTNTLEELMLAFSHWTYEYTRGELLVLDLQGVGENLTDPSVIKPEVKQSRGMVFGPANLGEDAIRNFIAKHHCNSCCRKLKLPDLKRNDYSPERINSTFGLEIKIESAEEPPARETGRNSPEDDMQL

# Series 1
# Target: PABPC1L2, full length, GST fusion (mouse, UniProt A0ABA7IW68)
# Method: RNAcompete
# Molecule type: RNA
# Medium: in vitro
# Tested at: 20 nM
# Setting: 7-mer, probes averaged, single round
# Reference: mean of 7-mers
# Reading: higher = stronger binding
# Residues (chain): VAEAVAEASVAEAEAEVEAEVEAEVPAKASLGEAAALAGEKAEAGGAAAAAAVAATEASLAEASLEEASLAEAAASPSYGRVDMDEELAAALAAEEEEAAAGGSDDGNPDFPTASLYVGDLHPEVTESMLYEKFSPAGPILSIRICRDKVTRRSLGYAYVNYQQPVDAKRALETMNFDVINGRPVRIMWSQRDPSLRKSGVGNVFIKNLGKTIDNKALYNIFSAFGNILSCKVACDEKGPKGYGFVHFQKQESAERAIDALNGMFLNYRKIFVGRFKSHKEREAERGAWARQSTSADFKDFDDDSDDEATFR
Sequence,7-mer Z-score
UUUAUUU,-0.226
CUUGGAA,0.0497
AUCCCAU,-0.351
AUGCUAG,-0.0971
UAGAUUA,-0.0446
AAUUUGU,-0.17
GGUAUAG,-0.0518
AAUAGGC,0.851

# Series 2
# Method: PRP chromatography estimate
# Medium: 1,9-decadiene/PBS
# pH: 7.4
Compound,logD
CCOC(=O)[C@@H]1CSCC(=O)N[C@H](CC)C(=O)N(C)[C@@H](C)C(=O)N[C@@H](CC(C)C)C(=O)N2CCC[C@H]2C(=O)N(CC)CC(=O)N[C@H](CC(C)C)C(=O)N(C)[C@H](C)C(=O)N[C@@H](CC(C)C)C(=O)N1C,-0.527
CC(C)C[C@@H]1NC(=O)[C@H](CC(C)C)NC(=O)[C@H](CC(C)C)NC(=O)[C@H](C(C)C)NC(=O)[C@H](C(C)C)NC(=O)[C@H](Cc2cscn2)NC(=O)[C@H](C)NC1=O,-0.474
CC(C)C[C@@H]1NC(=O)[C@H](C)NC(=O)[C@H](CC(C)C)NC(=O)[C@@H](CC(C)C)NC(=O)[C@H](CC(C)C)NC(=O)[C@H](C)NC(=O)[C@H](CCC(=O)N2CCCC2)NC1=O,-1.95
CC(C)C[C@@H]1NC(=O)[C@H](CC(C)C)NC(=O)[C@H](CC(C)C)NC(=O)[C@H](CC(C)C)NC(=O)[C@@H](CCC(=O)N2CCCC2)NC(=O)[C@H](Cc2cscn2)NC(=O)[C@H](C)NC1=O,-1.53

# Series 3
# Compound: CCS(=O)(=O)c1cc2cc(C[C@](O)(CC(C)(C)c3ccc(F)cc3C(N)=O)C(F)(F)F)[nH]c2cn1
# Tested at: 1 µM
target,test,remaining binding [%]
"Glycogen synthase kinase-3 beta (GSK3B, Homo sapiens, UniProt P49841)","cell-free assay, competition with immobilised ligand",100
"Cyclin-dependent kinase 13 (CDK13, Homo sapiens, UniProt Q14004)","cell-free assay, competition with immobilised ligand",100
"Testis-specific serine/threonine-protein kinase 1 (TSSK1B, Homo sapiens, UniProt Q9BXA7)","cell-free assay, competition with immobilised ligand",94
"Mitogen-activated protein kinase kinase kinase kinase 3 (MAP4K3, Homo sapiens, UniProt Q8IVH8)","cell-free assay, competition with immobilised ligand",83
"LIM domain kinase 1 (LIMK1, Homo sapiens, UniProt P53667)","cell-free assay, competition with immobilised ligand",100
"Serine/threonine-protein kinase Nek4 (NEK4, Homo sapiens, UniProt P51957)","cell-free assay, competition with immobilised ligand",85
"Beta-adrenergic receptor kinase 1 (GRK2, Homo sapiens, UniProt P25098)","cell-free assay, competition with immobilised ligand",84
"Serine/threonine-protein kinase MRCK gamma (CDC42BPG, Homo sapiens, UniProt Q6DT37)",competition binding,100
"Tyrosine-protein kinase ABL1, phosphorylated (ABL1, Homo sapiens, UniProt P00519, Q252H)","cell-free assay, competition with immobilised ligand",100
"Serine/threonine-protein kinase pim-3 (PIM3, Homo sapiens, UniProt Q86V86)","cell-free assay, competition with immobilised ligand",100
"Casein kinase I isoform gamma-1 (CSNK1G1, Homo sapiens, UniProt Q9HCP0)","cell-free assay, competition with immobilised ligand",96
"Mitogen-activated protein kinase kinase kinase 11 (MAP3K11, Homo sapiens, UniProt Q16584)","cell-free assay, competition with immobilised ligand",100
"Transient receptor potential cation channel subfamily M member 6 (TRPM6, Homo sapiens, UniProt Q9BX84)","cell-free assay, competition with immobilised ligand",86

# Other studies, line by line
Compound,target or system,test,test system,setting,scale,quantity,result
c1ccc(COCCCc2c[nH]cn2)cc1,mouse MPNST tumor cells,"high-content immunofluorescence imaging, refers to: nuclear SOX9",,"10 µM, 12 h, mean of 2 replicates","reference: DMSO control, higher = more nuclear SOX9",nuclear SOX9 intensity,104 % of DMSO
CN1CCN(CCCN2c3ccccc3Sc3ccc(Cl)cc32)CC1,Sarcocystis neurona,parasite growth,,10 µM,,inhibition,12.7%
COC(=O)c1ccccc1NC(=O)c1ccc(F)cc1,mouse MPNST tumor cells,"high-content immunofluorescence imaging, refers to: nuclear SOX9",,"10 µM, 12 h, mean of 2 replicates","reference: DMSO control, higher = more nuclear SOX9",nuclear SOX9 intensity,106 % of DMSO
COCCNc1nc2c(c(=O)n(C)c(=O)n2C)n1CCOC,,,"mouse, microsomes or S9","2 µM, 0.5 h",,remaining compound,67.5%

# For quick reference, copied from above (series 1):
Sequence,7-mer Z-score
GGUAUAG,-0.0518
AAUAGGC,0.851
